# Measured values of several laboratories.
# Lines come from different studies, so protocols differ. ± gives the spread as reported.
# Route: intravenous
Compound,method,species,matrix,dose,time,tissue uptake
CCCC[C@H](NC(=O)CNC(=O)CNC(=O)[C@H](CCCCNC(=O)[C@H](CC(=O)O)NC(=O)C(C)c1ccc(CC(C)C)cc1)NC(=O)CN1CCN(CC(=O)O)CCN(CC(=O)O)CCN(CC(=O)O)CC1)C(=O)N[C@H]1CC(=O)NCCCC[C@@H](C(N)=O)NC(=O)[C@H](Cc2c[nH]c3ccccc23)NC(=O)[C@H](CCCNC(=N)N)NC(=O)[C@@H](Cc2ccccc2)NC(=O)[C@H](Cc2c[nH]cn2)NC1=O (some centres unmarked) [lutetium-177 labelled],,"C57 mice, tumour-bearing",blood,0.037 MBq,4 h,0.55 ± 0.11 %ID/g
O=C([O-])CN1CCN(CC(=O)[O-])CCN(CC(=O)NC[C@H]2CC[C@H](C(=O)N[C@H](Cc3cnc4ccccc4c3)C(=O)NCCCC[C@H](NC(=O)N[C@@H](CCC(=O)O)C(=O)O)C(=O)O)CC2)CCN(CC(=O)[O-])CC1.[64Cu+2],ex vivo gamma counting,22Rv1 tumour-bearing mice,lung,0.74 MBq,6 h post-injection,18.6 %ID/g
O=C(NCC1OC2CCC=CCCC2O1)c1ccc([18F])nc1 (centres unmarked),,healthy female BALB/c nude mice,stomach,7.4 MBq per mouse,60 min,1.5 ± 0.3 %ID/g
Cc1cc(C)n(CCN(CCN)CCCCCCNC(=O)[C@@H](N)Cc2c[nH]cn2)n1.[99Tc+].[C-]#[O+].[C-]#[O+].[C-]#[O+],,"BALB/c nude mice, A549 xenograft",muscle,,4 h,0.1 ± 0.01 %IA/g
COc1ccc(Nc2nc(Nc3ccc(OCCOCCOCC[18F])cc3)ncc2Br)cc1,,"ICR mice, S180 tumour-bearing",spleen,370 kBq,5 min,2.87 ± 0.24 %ID/g
CC(C)C[C@H](NC(=O)[C@@H](CCCCNC(=O)[C@@H](Cc1ccccc1)NC(=O)CCCCCCCNC(=O)CN1CCN(CC(=O)O)CCN(CC(=O)O)CCN(CC(=O)O)CC1)NC(=O)[C@H](Cc1ccc(O)cc1)NC(=O)[C@H](CO)NC(=O)[C@H](Cc1c[nH]c2ccccc12)NC(=O)[C@H](Cc1c[nH]cn1)NC(=O)[C@@H]1CCC(=O)N1)C(=O)N[C@@H](CCCNC(=N)N)C(=O)N1CCC[C@H]1C(=O)NCC(N)=O [indium-111 labelled],,"male athymic nude mice, DU-145 prostate cancer xenograft",kidney,0.037 MBq,4 h,6.14 ± 0.32 %ID/g
COc1ccc(Nc2nc(Nc3ccc(OCCOCC[18F])cc3)ncc2Br)cc1,,"ICR mice, S180 tumour-bearing",muscle,370 kBq,30 min,2.39 ± 0.41 %ID/g
CCCC[C@H](NC(=O)COCCOCCNC(=O)CN1CCN(CC(=O)O)CCN(CC(=O)O)CC1)C(=O)N[C@H]1CC(=O)NCCCC[C@@H](C(N)=O)NC(=O)[C@H](Cc2c[nH]c3ccccc23)NC(=O)[C@H](CCCNC(=N)N)NC(=O)[C@@H](Cc2ccccc2)NC(=O)[C@H](Cc2c[nH]cn2)NC1=O [fluorine-18 labelled],,C57 mice B16-F10 melanoma,pancreas,0.37 MBq,1 h,0.27 ± 0.4 %ID/g

# For quick reference, copied from above:
Compound,method,species,matrix,dose,time,tissue uptake
CCCC[C@H](NC(=O)CNC(=O)CNC(=O)[C@H](CCCCNC(=O)[C@H](CC(=O)O)NC(=O)C(C)c1ccc(CC(C)C)cc1)NC(=O)CN1CCN(CC(=O)O)CCN(CC(=O)O)CCN(CC(=O)O)CC1)C(=O)N[C@H]1CC(=O)NCCCC[C@@H](C(N)=O)NC(=O)[C@H](Cc2c[nH]c3ccccc23)NC(=O)[C@H](CCCNC(=N)N)NC(=O)[C@@H](Cc2ccccc2)NC(=O)[C@H](Cc2c[nH]cn2)NC1=O (some centres unmarked) [lutetium-177 labelled],,"C57 mice, tumour-bearing",blood,0.037 MBq,4 h,0.55 ± 0.11 %ID/g
